Results from different studies.
Numbered parts are unrelated; each lists some results of a single study.

Sample 1
Target: Sal-like protein 4, full length isoform B (SALL4, Homo sapiens, UniProt Q9UJQ4-2, residues 1-616)
Technique: universal PBM
Form: double-stranded DNA, one strand shown
Matrix: in vitro
Tested at: not given
Notes: 8-mer, flanks averaged, mean of replicates
Direction: higher = stronger binding
Construct (chain): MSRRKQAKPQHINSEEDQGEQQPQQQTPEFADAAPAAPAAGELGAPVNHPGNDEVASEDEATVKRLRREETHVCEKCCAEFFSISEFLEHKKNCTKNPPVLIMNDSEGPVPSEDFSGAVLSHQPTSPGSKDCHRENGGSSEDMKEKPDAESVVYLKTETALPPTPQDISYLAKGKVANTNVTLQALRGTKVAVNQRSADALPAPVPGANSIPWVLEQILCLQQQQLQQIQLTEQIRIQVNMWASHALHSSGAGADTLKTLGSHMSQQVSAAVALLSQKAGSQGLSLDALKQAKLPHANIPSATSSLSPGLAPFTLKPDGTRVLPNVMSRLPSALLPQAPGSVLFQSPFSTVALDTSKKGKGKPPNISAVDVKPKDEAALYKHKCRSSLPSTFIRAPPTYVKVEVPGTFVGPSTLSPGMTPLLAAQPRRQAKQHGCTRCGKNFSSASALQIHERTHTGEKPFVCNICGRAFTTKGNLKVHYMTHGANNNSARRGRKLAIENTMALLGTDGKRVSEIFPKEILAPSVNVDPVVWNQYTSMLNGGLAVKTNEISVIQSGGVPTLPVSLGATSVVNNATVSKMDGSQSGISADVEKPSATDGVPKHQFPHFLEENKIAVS
`AACCGTTG` has an E-score of 0.103.
The E-score of `TGGATCAA` is reported as 0.118.
`CCAGAAAC` gave an E-score of -0.0943.
The E-score of `AAATCAGG` is reported as 0.078.
`AGGGGTAC` has an E-score of -0.191.
With `AGGAGTAA` the E-score was 0.114.
For `CCAGGGGG`, the E-score was -0.266.
`GTGCGGTA` has an E-score of -0.171.
`ACTGTCAA` gave an E-score of 0.0459.
For `GAACTAGC`, the E-score was -0.125.
For `TGACCAAA`, the E-score was 0.137.
The E-score of `AGGTGGAA` is reported as 0.132.
`TAGCGCAA` gave an E-score of 0.115.
`ATTGTCGG` has an E-score of -0.0661.
With `AAAAAATA` the E-score was 0.419.
`CGGTGTCC` has an E-score of -0.379.
`CCCTAATA` gave an E-score of 0.311.
For `ATACAGTG`, the E-score was 0.174.
`AGCATGCA` gave an E-score of 0.0447.
With `ACTTTGGC` the E-score was -0.181.
`ATTGCATG` has an E-score of 0.192.
`ACCCATTG` gave an E-score of -0.0824.
`AAACACGC` has an E-score of 0.0214.

Sample 2
Target: Histone acetyltransferase KAT6A, winged helix 2, GST fusion (KAT6A, Homo sapiens, UniProt Q92794, residues 85-181)
Technique: protein binding microarray
Form: double-stranded DNA, one strand shown
Matrix: in vitro
Tested at: not given
Notes: 8-mer, flanks averaged, mean of 2 arrays, mostly near background
Reference: not given
Direction: higher = stronger binding
Target sequence (chain): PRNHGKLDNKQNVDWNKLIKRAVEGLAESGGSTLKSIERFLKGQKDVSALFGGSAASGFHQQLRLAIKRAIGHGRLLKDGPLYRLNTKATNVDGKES
For `CGCACACA`, the E-score was 0.106.
`TAATGCGA` gave an E-score of 0.0101.
`AACGCATA` gave an E-score of 0.0735.
With `AATAACGG` the E-score was 0.109.
For `GACATCCC`, the E-score was 0.00583.
The E-score of `CGTAGGAC` is reported as 0.157.
For `ATGTGCCC`, the E-score was 0.111.
`GTATCCCA` gave an E-score of 0.0382.
`CCAGGGCA` has an E-score of 0.125.
For `GCTATCTA`, the E-score was -0.0063.
For `CCGGGAAA`, the E-score was 0.179.
`AGGGTCGG` gave an E-score of 0.157.
`CCGGTGTC` gave an E-score of -0.0201.
With `AAGTCGGC` the E-score was -0.117.
For `CCTTTGTC`, the E-score was -0.0733.
The E-score of `AAAGGCTA` is reported as -0.0806.
`AGGTTGGG` gave an E-score of 0.103.
The E-score of `CCCCTTAC` is reported as 0.0625.
With `GCATCCGC` the E-score was 0.119.
The E-score of `GGCTTTCA` is reported as 0.144.
`GGCAACCC` has an E-score of 0.0344.
`GTTGGTCA` gave an E-score of 0.028.
`ACTCCTAG` gave an E-score of -0.15.
For `CGACGGGA`, the E-score was 0.195.
For `ACGTTCTC`, the E-score was -0.17.

Sample 3
Target: PABPC1L2, full length, GST fusion (mouse, UniProt A0ABA7IW68)
Technique: RNAcompete
Form: RNA
Matrix: in vitro
Tested at: 20 nM
Notes: 7-mer, probes averaged, single round
Reference: mean of 7-mers
Direction: higher = stronger binding
Construct (chain): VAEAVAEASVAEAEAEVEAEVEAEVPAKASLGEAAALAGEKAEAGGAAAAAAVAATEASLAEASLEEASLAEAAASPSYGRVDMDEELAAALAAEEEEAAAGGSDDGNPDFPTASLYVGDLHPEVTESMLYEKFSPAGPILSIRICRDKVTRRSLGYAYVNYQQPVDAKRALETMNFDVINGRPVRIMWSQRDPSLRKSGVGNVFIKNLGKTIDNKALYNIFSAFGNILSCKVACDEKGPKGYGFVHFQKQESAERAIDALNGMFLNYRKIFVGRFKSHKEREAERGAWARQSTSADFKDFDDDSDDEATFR
`UAUUUUA` has a 7-mer Z-score of -0.168.
The 7-mer Z-score of `CGUUCGG` is reported as -0.344.
For `AUCUAGU`, the 7-mer Z-score was -0.211.
`CCCCUGA` gave a 7-mer Z-score of -0.257.
For `GCUCCUC`, the 7-mer Z-score was -0.414.
The 7-mer Z-score of `AAUCUAA` is reported as 0.066.
For `GUCCUCC`, the 7-mer Z-score was -0.335.
`GUCUUGU` gave a 7-mer Z-score of -0.445.
`GCGAUUA` gave a 7-mer Z-score of 0.0152.
For `AAUCCCC`, the 7-mer Z-score was -0.358.
`CCGGGAG` has a 7-mer Z-score of -0.195.
With `AGGGGAA` the 7-mer Z-score was 0.314.
`CUUGUAG` gave a 7-mer Z-score of -0.269.
With `UUGGUUA` the 7-mer Z-score was -0.298.
`GCGAGUG` gave a 7-mer Z-score of 0.0714.
`AGUGAAG` gave a 7-mer Z-score of 0.0877.
For `GCGCCUU`, the 7-mer Z-score was -0.345.
For `CUUGCAC`, the 7-mer Z-score was -0.258.
`AACAAGU` has a 7-mer Z-score of 0.717.
`CGCGAUU` has a 7-mer Z-score of -0.2.
`GGGUGUU` has a 7-mer Z-score of -0.0681.
For `UUUUACA`, the 7-mer Z-score was -0.0645.
For `CCGAAGA`, the 7-mer Z-score was -0.0826.
`GGCACAA` has a 7-mer Z-score of 0.3.

Sample 4
Target: RING finger protein unkempt homolog, zinc fingers 1-6, GST-SBP tag (UNK, Homo sapiens, UniProt Q9C0B0, residues 30-357)
Technique: RNA Bind-n-Seq
Form: RNA
Matrix: in vitro
Tested at: not given
Notes: RNA with constant flanks, human-mouse chimeric sites, ends assumed
Reference: input RNA pool
Direction: higher = stronger binding
Construct (chain): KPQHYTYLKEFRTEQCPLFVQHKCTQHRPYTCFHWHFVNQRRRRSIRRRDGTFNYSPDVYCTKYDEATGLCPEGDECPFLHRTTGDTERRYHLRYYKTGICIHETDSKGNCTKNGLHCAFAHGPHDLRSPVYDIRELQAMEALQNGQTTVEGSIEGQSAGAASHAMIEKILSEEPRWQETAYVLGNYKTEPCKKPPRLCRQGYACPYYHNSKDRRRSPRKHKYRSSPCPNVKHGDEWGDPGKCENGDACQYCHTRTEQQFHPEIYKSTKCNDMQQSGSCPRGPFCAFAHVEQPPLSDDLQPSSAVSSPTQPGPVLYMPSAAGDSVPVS
With `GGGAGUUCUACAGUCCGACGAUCUUAAUCCCCUUUACUGCUCCCCCACUUCUCAUGGUAAUGACAAAAACUUAUAUUCCCGUCCUAGCUUUCACUCAGAUGGCUUAUGGAGCCGGUUUCCUAGCUUUCUUGGGAGGGAUCAGACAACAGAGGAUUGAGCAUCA` the bound/input enrichment was 0.346 ratio.
`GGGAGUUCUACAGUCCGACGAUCGAAACAUUUAAAUUUAAAGAAGCUGUUGUUUUAGGGAGUACGGACUUUCUAGAAGAUGAUAUAGAGAAAAUUGUAGAAGAACUGGGAAAAGAGUAUAAGGGCAACGCCUACCAUCUGAUGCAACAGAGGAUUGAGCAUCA` has a bound/input enrichment of 3 ratio.
For `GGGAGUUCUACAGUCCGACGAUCCGCUGGCCCAAGCUGAUGGACUCUGAUGGCCUCCAUCAAGGUAUUAUGUGUGCCUUCUCUUAGUCCCUGUUUUCGGGAUGUUAUGAAUCUCAGUACUGUGGUUUGAAAGCAGUUAUGUUGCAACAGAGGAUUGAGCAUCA`, the bound/input enrichment was 0.173 ratio.
The bound/input enrichment of `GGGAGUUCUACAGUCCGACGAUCUCUUUAAAAAAAAAAUUACCUUUUCUGACAGUGCUUUCCCUCCCAUAGAUCCACGUUCACACUAGAAGAGCAAAGGCUUUGCACGGAGCUCAAACAUAAAAGAAAGAAAGAUUUCUGAGACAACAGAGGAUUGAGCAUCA` is reported as 2.83 ratio.
`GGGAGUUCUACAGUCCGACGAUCGUGCCCUUCUCGCUGCUGCGGAGCCCGAGCUGGGAACACCCCUUCCGCUGGUACCCUGCACACAGCCGCCUCUUCGACCAGGCCUUCGGGGUGCCCCGGUUGCCCGAUGAGUGGUCGCAGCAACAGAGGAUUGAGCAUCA` has a bound/input enrichment of 0.0728 ratio.
`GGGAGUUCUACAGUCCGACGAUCACUCUUGACUCUUUCCAUCCUCUUCCUUUUCCUCUUGAUAUUCAAGGCCAUGAAUCCCAAAAUAACAGUCUUAGUGGCUAGCACCCAAACAGAGGUGGAAUAAAUCCACCCCAGUGUCUCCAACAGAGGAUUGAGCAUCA` has a bound/input enrichment of 0.56 ratio.
`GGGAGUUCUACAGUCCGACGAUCAGUGUGCAGGAAUUCAUGACCUUUACAAGUCAACUGAUUGUGGAGCGCUCAUCGAAAGGCAGCAGAGCUUCUGUCAAAGAACAAGAGUAUCUUUGCCAUGUCUACGUCCGGAGCGACAGUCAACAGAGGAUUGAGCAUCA` gave a bound/input enrichment of 0.0824 ratio.
`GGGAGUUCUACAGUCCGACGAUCGUCAACAGCUGCCUCAACCCCAUCCUCUACGCCUUCCUGGAUGAGAACUUCAAGGCCUGCUUCCGCAAGUUCUGCUGUGCAUCUGCCCUGCACCGGGACGUGCAGGUGUCUGACCGCGUGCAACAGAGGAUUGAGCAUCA` has a bound/input enrichment of 0.316 ratio.
For `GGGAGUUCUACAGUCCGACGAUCGAAAGAGAACUAAAGCAACUAAUAGAGAAGAGGAUUGGCAAAGAGAAUUUCAUAGAGGAAACUAGGAUUAUUAGCAAACAUGAGUUAUAUUCCAGAGCGUCUCAGAAACCCCAGCCAAACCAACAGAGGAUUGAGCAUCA`, the bound/input enrichment was 3.57 ratio.
`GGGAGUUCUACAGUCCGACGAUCUUUGUUUUUAUGCUAAGCACACGUGCUGGUGGUCUGGGCAUCAAUCUUGCAACUGCUGAUGUAGUCAUUUUAUAUGACUCAGAUUGGAAUCCGCAAGUAGAUCUUCAGGCUAUGGACCGUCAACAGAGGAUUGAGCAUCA` gave a bound/input enrichment of 0.145 ratio.

For quick reference, copied from above (sample 1):
The E-score of `AAATCAGG` is reported as 0.078.
`AGGGGTAC` has an E-score of -0.191.
With `AGGAGTAA` the E-score was 0.114.
For `CCAGGGGG`, the E-score was -0.266.
`GTGCGGTA` has an E-score of -0.171.
`ACTGTCAA` gave an E-score of 0.0459.
For `GAACTAGC`, the E-score was -0.125.
For `TGACCAAA`, the E-score was 0.137.
The E-score of `AGGTGGAA` is reported as 0.132.
`TAGCGCAA` gave an E-score of 0.115.
`ATTGTCGG` has an E-score of -0.0661.
With `AAAAAATA` the E-score was 0.419.
`CGGTGTCC` has an E-score of -0.379.
